Assay results from different studies.
Compare with care: the assays were run in different laboratories. Values joined by “and” are separate records of one study, mostly repeats; a detail may differ.
TDP1: Tyrosyl-DNA phosphodiesterase 1 (TDP1, Homo sapiens, UniProt Q9NUW8)
UniProt Q9NUW8, sequence (whole entry, looked up): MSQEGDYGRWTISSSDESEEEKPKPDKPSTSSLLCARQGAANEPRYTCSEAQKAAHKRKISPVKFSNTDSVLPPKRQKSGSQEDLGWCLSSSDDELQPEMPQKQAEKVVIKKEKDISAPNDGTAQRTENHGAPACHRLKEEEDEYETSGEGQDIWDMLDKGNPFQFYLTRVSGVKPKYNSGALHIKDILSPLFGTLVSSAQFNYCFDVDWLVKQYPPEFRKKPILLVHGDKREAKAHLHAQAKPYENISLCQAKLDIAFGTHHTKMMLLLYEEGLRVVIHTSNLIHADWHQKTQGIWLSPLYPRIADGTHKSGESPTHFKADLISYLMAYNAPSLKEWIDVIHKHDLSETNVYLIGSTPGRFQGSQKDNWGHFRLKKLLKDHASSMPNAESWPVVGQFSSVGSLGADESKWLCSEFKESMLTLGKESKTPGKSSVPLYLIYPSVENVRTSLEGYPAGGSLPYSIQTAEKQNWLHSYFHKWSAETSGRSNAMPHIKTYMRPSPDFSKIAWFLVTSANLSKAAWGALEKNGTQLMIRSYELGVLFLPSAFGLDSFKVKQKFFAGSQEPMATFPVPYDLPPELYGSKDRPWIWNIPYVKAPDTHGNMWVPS

The mean TGI of O=C(C[Se]C(=O)c1cccnc1Nc1cccc(C(F)(F)F)c1)Nc1cccc(C(F)(F)F)c1 is reported as 3.37 µM (NCI60 melanoma subpanel; total growth inhibition, inhibitor; five-dose).
O=C(Nc1nnc2c1c(-c1ccc(Cl)cc1)nc1sc(=Cc3ccco3)c(=O)n12)c1ccccc1 (mixture of isomers) has a cell growth of 92.4% (UACC-257; SRB; 10 µM, NCI60 single-dose screen; relative to: untreated).
CC(=O)Oc1ccccc1C(=O)[Se]CC(=O)Nc1cccc(C(F)(F)F)c1 gave a mean TGI of 48.5 µM (NCI60 leukaemia subpanel; NCI60 five-dose screen).
O=C(O)c1ccc(Nc2c(-c3ccc(CON=Cc4cccc5c4OCO5)cc3)nc3cc(-c4ccccc4)ccn23)cc1 has an inhibition of 44.8% (TDP1; enzyme activity, inhibitor; 100 µM, unpurified compound).
The viability of CCOC(=O)c1ccc(-n2c(N)c(C#N)c(SC)c(C#N)c2=O)cc1 is reported as 100% (HepG2; cell growth or viability, MTT; 1.56 µM, 24 h).
The TGI of C1=[N+]2CCCC[N+]3=Cc4ccc5[n]4[Au-]23[n]2c1ccc2-c1nc2ccccc2nc1-5.F[P-](F)(F)(F)(F)F is reported as 4.48 -log M (HCC 2998; NCI60 five-dose screen).
For CCCC(CCC)C(=O)OCc1cn(-c2cc3ccccc3oc2=O)nn1, the growth percentage was 103% (HCC 2998; NCI60 single-dose screen; 10 µM).
Cn1ncc2cc(-c3cncc(Cl)c3N3CCC4(CCNC4=O)CC3)ccc21: “log2 fold change” 2.85 (LS174T; gene expression, microarray, measured: CMBL mRNA; concentration not given, 4 h; relative to: untreated cells).
Under “mean growth percent”, O=C(C[Se]C(=O)C12CC3CC(CC(C3)C1)C2)Nc1cccc(C(F)(F)F)c1 is recorded as -49.7% (NCI60 melanoma subpanel; cell growth; 10 µM, 48 h, one-dose).
With CCc1n(CC(=O)O[C@@H]2C[C@H](C)CC[C@H]2C(C)C)c2ccccc2[n+]1C the mRNA level was 10 (HTS cells (mouse); gene microarray, measured: TRIB3; 1 µM, 24 h, unit not given; relative to: untreated).
With COc1cc(/C=C/C(=O)/C=C(O)/C=C/c2ccc(OCC(=O)N3CCOCCOCCOCCOCCOCC3)c(OC)c2)ccc1OCC(=O)N1CCOCCOCCOCCOCCOCC1 the inhibition was 99.4% (HCT-15; cell growth or viability, SRB; 25 µM).
C=CC(=O)Nc1cc(Nc2nccc(-c3c(-c4cccc(-c5ccccc5)c4)n(C)c4ccccc34)n2)c(OC)cc1N(C)CCN(C)C has an inhibition of 73.5% (NCI-H1975; cell growth or viability, MTT; 0.5 µM, 72 h).
CCN(CC)CC(=O)Nc1cccc(-n2cc(-c3ccc4ccc(-c5cn(-c6cccc(NC(=O)CN(CC)CC)c6)nn5)cc4c3)nn2)c1 has a fold regulation of -1.34 (RCC4; PCR angiogenesis array, measured: MDK; 5 x IC50, 4 h, normoxia; relative to: untreated).
With O=C(C[Se]C(=O)c1cc2ccccc2s1)Nc1cccc(C(F)(F)F)c1 the GI50 was 1.35 µM (NCI60 leukaemia subpanel; NCI60 five-dose screen).
With CC(C)c1ccc(N(C)c2ccc3c(c2)OCC[C@H]3CNc2cnccc2C(=O)O)cc1 the IC50 was 0.00619 µM (AGS; cell growth or viability, ATP luminescence; 7 days).
COc1cc(N(C)CCN(C)C)c(NC(=O)/C=C/c2ccc(OC)c3ccccc23)cc1Nc1nccc(-c2cn(C)c3ccccc23)n1 has an inhibition of 60.2% (NCI-H1975; cell growth or viability, MTT; 0.5 µM, 72 h).
CC1(C)C[C@@H](Nc2cccc(-c3sc(C(=O)O)c(OCC(=O)O)c3Cl)c2)CCN1S(=O)(=O)Cc1cccc(NC(=O)CN2CCC(c3ccc4c(c3)oc(=O)n4C3CCC(=O)NC3=O)CC2)c1 (stereo partly drawn) has a pSTAT1 level of 86.1% and 82.4% and 89.5% and 89.4% and 87.8% and 79.4% (B16-F10; HTRF, measured: phospho-STAT1 Tyr701; 10 µM, together with: IFN-γ; relative to: min-max normalised).
CSc1nc2ccccc2cc1C=NOCc1ccc(-c2nc3cc(-c4ccccc4)ccn3c2Nc2ccc(C(=O)O)cc2)cc1 gave an inhibition of 50.6% (TDP1; enzyme activity, inhibitor; 100 µM, unpurified compound).
Under “log2 fold change”, Cc1ncsc1-c1ccc(C(C)NC(=O)C2CC(O)CN2C(=O)C(NC(=O)CCCCCCCCCCN2CCCC(Nc3ncc(Cl)c(Nc4ccccc4S(=O)(=O)C(C)C)n3)C2)C(C)(C)C)cc1 (stereo not drawn) is recorded as -2 (22Rv1; RNA-seq, measured: SLX4 mRNA; concentration not given; relative to: DMSO).
COc1cc(N(C)CCN(C)C)c(NC(=O)/C=C/c2ccc(C#N)cc2)cc1Nc1nccc(-c2cn(C)c3ccccc23)n1 gave an inhibition of 67.7% (NCI-H1975; cell growth or viability, MTT; 0.5 µM, 72 h).
Cc1cc(Cl)cc(-c2ccnc3cc(CN4C(=O)C5C(C4=O)C5(C)C)sc23)c1C[C@@H]1CNCCO1 (stereo partly drawn) has an apoptotic cells of 12.3% (CHP-212 resistant; annexin V/PI flow cytometry; 1 µM, 48 h).
With CNS(=O)(=O)Nc1nccc(Cc2c(C)c3ccc(Oc4ncccc4F)cc3oc2=O)c1F the IC50 was greater than 1 µM (HEC-1-A; cell viability; 7 days).
O=C(C[Se]C(=O)c1cc2ccccc2o1)Nc1cccc(C(F)(F)F)c1 gave a GI50 of 1.87 µM (NCI60 leukaemia subpanel; NCI60 five-dose screen).
C=CC(=O)Nc1cc(Nc2nccc(-c3c(-c4ccc5ccccc5c4)n(C)c4ccccc34)n2)c(OC)cc1N(C)CCN(C)C has an inhibition of 72.7% (NCI-H1975; cell growth or viability, MTT; 0.5 µM, 72 h).
O=C(c1cccc(N2Cc3cn(Cc4ccc(F)cc4)nc3C2)c1)N1CCNCC1 gave an IC50 of 0.015 µM (HEK293 expressing GluA1 and GluA2; glutamate excitotoxic cell death, CellTox Green; together with: glutamate).
With COC(=O)C1=C(C)Oc2ccc(Br)cc2C1C(C(C)=O)C(=O)OC (stereo not drawn) the lipid content was 0.721 OD492 and 0.797 OD492 and 0.695 OD492 (3T3-L1 preadipocytes; adipogenesis, Oil Red O staining; IC20, 14 days, single replicate).
CCN(C(=O)c1cc(F)ccc1Oc1nncnc1N1CCC2(C1)CN([C@H](CCCN(C)CCOC)C(C)C)C2)C(C)C has a GI50 of 0.0175 µM (MV4-11; cell growth or viability; 72 h).
Under “log2 fold change”, CN1CCCNC(=O)c2cccc(c2)C(=O)NCCCN(C)CCCNc2cccc3c2C(=O)c2cccc(c2C3=O)NCCC1 is recorded as 1.77 (SAS; RNA-Seq, measured: SPACA9 mRNA; 1 µM, 6 h; relative to: untreated cells).
With Cc1ccc(-n2cc(CSc3nc4ccccc4n3Cc3cn(-c4ccc(C)cc4)nn3)nn2)cc1 the cytotoxicity was 58.9% (Caco-2; MTT; 15.6 ppm).
COc1ccccc1-c1ccncc1C(=O)Nc1nnc(OCc2ccc(Cl)cc2)s1 gave a colony count of 8 and 9 and 14 and 12 (MDA-MB-436 BRCA1-mutant; 3 µM).
COc1ccc(Br)c2c1OC1=C(C(=O)CCC1)C2c1c[nH]c2ccccc12 (stereo not drawn) gave a lipid content of 0.791 OD492 and 0.758 OD492 and 0.812 OD492 (3T3-L1 preadipocytes; adipogenesis, Oil Red O staining; IC20, 14 days, single replicate).
O=C(C[Se]C(=O)c1ccccc1Nc1cccc(C(F)(F)F)c1)Nc1cccc(C(F)(F)F)c1 has a GI50 of 1.87 µM (NCI60 melanoma subpanel; cell growth, inhibitor; five-dose).
COc1ccc(NC(=O)c2c(Nc3ccccc3)sc(C(=O)N/N=C/c3ccc(OC)c(OC)c3)c2NC(C)=O)cc1 gave a viability of 53.2% (HepG2; cell growth or viability, SRB; 10 µM, 48 h).

Repeated from above:
The TGI of C1=[N+]2CCCC[N+]3=Cc4ccc5[n]4[Au-]23[n]2c1ccc2-c1nc2ccccc2nc1-5.F[P-](F)(F)(F)(F)F is reported as 4.48 -log M (HCC 2998; NCI60 five-dose screen).
With CC(C)c1ccc(N(C)c2ccc3c(c2)OCC[C@H]3CNc2cnccc2C(=O)O)cc1 the IC50 was 0.00619 µM (AGS; cell growth or viability, ATP luminescence; 7 days).
Under “mean growth percent”, O=C(C[Se]C(=O)C12CC3CC(CC(C3)C1)C2)Nc1cccc(C(F)(F)F)c1 is recorded as -49.7% (NCI60 melanoma subpanel; cell growth; 10 µM, 48 h, one-dose).
